Measured values gathered from unrelated publications.
Several values in a cell are separate wells, animals, samples, runs or records.
Target: Delta-type opioid receptor (OPRD1, Homo sapiens, UniProt P41143)
Chain of UniProt P41143 (whole entry, looked up): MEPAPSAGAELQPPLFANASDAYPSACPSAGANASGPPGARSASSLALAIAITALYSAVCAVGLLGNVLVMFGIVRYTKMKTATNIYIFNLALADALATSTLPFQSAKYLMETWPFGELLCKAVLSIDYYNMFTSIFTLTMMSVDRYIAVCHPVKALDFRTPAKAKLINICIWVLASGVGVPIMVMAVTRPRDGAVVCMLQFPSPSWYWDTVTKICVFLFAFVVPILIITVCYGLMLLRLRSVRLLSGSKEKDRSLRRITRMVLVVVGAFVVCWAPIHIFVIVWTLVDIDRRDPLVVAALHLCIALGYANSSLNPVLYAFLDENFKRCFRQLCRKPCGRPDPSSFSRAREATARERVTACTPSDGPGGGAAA

Structure (SMILES) | test | setting | how to read | measurement | value
O=C(O)c1ccc(-c2nc(-c3ccccc3Cl)c3sccn23)cc1 | ligand displacement | 10 µM |  | binding vs control | 19.4% and 16.5%
CN[C@@H]1[C@H](O)[C@H](NC)[C@H]2O[C@]3(O)[C@H](O[C@@H]2[C@H]1O)O[C@H](C)C[C@H]3NC(=O)Cc1ccc(Cl)cn1 | ligand displacement, radioligand | 10 µM |  | inhibition | 12%
C[C@@H]1COCCN1c1nc(NCc2cccnc2C(F)(F)F)c2cccnc2n1 | binding | CEREP panel |  | IC50 | 8.93 µM
Cc1cc(-c2ccc3ccccc3c2)nnc1NCCN1CCN(C)CC1 | antagonist | concentration not given |  | antagonist activity | negative
CCc1nnc(-c2c(OC)cc(-c3cnc4cc(-c5cnn(C)c5)ccn34)cc2OC)o1 | specific binding, agonist, radioligand binding | 10 µM | reference: control specific binding | inhibition | 6%
CN(C)[C@H](CNC(=O)/C=C/c1cccc2ccccc12)Cc1ccc(O)cc1 |  |  | reference: delta over mu receptor | selectivity ratio | 12
O=C(Cc1ccc(Cl)c(Cl)c1)N1CCNC2COCC(N3CCCC3)C21 (stereo not shown) | binding | up to 20 µM, with: [3H]DPDPE |  | inhibition | ≤ 50%
COc1ccc(F)cc1S(=O)(=O)Nc1cnc2c(c1)C(=O)NCCO2 | ligand displacement, radioligand | 10 µM |  | inhibition | 0%
C/C(=N\OCCCN1CCCCC1)c1ccc(C(F)(F)F)cc1 | agonist, cAMP | 10 µM |  | activation | -2.45%
Cc1sc2c(c1C)C(c1ccc(Cl)cc1)=NC(CC(=O)OC(C)(C)C)c1nnc(C)n1-2 (stereo not shown) | ligand displacement, radioligand | 1 µM |  | inhibition | -6%
Cc1cc(Nc2nc(C[C@@]3(C(=O)O)CCN(Cc4cccc(Cl)c4F)[C@H](C)C3)cc(C)c2F)[nH]n1 | agonist | 10 µM |  | activation | -0.33%
CN1CCC23c4c5ccc(O)c4CC2C(O)C=CC3C1C5 (racemic) | receptor activation, agonist, cell-based |  |  | Emax | < 10%
C[C@H](NCc1ccc(-c2ccc(C(F)(F)F)cc2)cc1)C(N)=O | radioligand binding, SafetyScreen panel | 1 µM, species human, with: 1.30 nM [3H]Naltrindole |  | inhibition | 7%

Excerpt of the above:
Structure (SMILES) | test | setting | how to read | measurement | value
CN1CCC23c4c5ccc(O)c4CC2C(O)C=CC3C1C5 (racemic) | receptor activation, agonist, cell-based |  |  | Emax | < 10%
Cc1cc(Nc2nc(C[C@@]3(C(=O)O)CCN(Cc4cccc(Cl)c4F)[C@H](C)C3)cc(C)c2F)[nH]n1 | agonist | 10 µM |  | activation | -0.33%
